Published values of several laboratories.
± marks the error that the study gave. Converted amounts (≈) assume the structure as drawn.

SMILES = O=C(NCc1ccc(O)cc1)c1cn(Cc2ccc(F)cc2)c2ccc(Oc3ccccc3)cc2c1=O; target or system = MDA-MB-231/LM2-4; assay = DNS; conditions = 72 h, 10% FBS; quantity = CC50; result = 58.1 ± 5.36 µM
SMILES = COc1ccc(N=Nc2c(N)nn3c(-c4ccco4)cc(-c4ccc(OCc5ccccc5)cc4)nc23)cc1; target or system = Enterococcus faecalis; assay = broth microdilution; test system = MTCC 0459; quantity = MIC; result = 31.3 µg/mL (≈ 60.6 µM)
SMILES = O=C(NCc1ccc(C(F)(F)F)cc1)c1cn(Cc2ccc(F)cc2)c2ccc(Oc3ccccc3)cc2c1=O; target or system = MCF10; conditions = 72 h; quantity = CC50; result = 28.6 ± 1.58 µM
SMILES = Cc1onc(-c2ccccc2)c1C(=O)N1CCN(c2ccc([N+](=O)[O-])cc2Cl)CC1; target or system = MDCK; assay = cell viability; conditions = 2 days; quantity = CC50; result = > 20 µM
SMILES = O=C(NCc1ccccc1)c1cn(Cc2ccc(C(F)(F)F)cc2)c2ccc(Oc3ccccc3)cc2c1=O; target or system = MDA-MB-231/LM2-4; assay = DNS; conditions = 48 h, 10% FBS; quantity = CC50; result = 33.1 µM
SMILES = O=C(Nc1ncccn1)OCc1ccccc1; target or system = Candida albicans; conditions = concentration not given; quantity = activity class; result = inactive
SMILES = O=C(NCc1ccc(Cl)cc1)c1cn(Cc2ccc(Cl)cc2)c2ccc(Oc3ccccc3)cc2c1=O; target or system = MCF10; conditions = 72 h; quantity = CC50; result = 12.4 ± 5.54 µM
SMILES = Cc1ccc(-c2cc(-c3ccc(OCc4ccccc4)cc3)nc3c(N=Nc4ccc(F)cc4)c(N)nn23)cc1; target or system = Candida albicans; assay = broth microdilution; test system = ATCC 10231; quantity = MFC/MIC ratio; result = 2

Some of these lines once more:
SMILES = O=C(NCc1ccc(C(F)(F)F)cc1)c1cn(Cc2ccc(F)cc2)c2ccc(Oc3ccccc3)cc2c1=O; target or system = MCF10; conditions = 72 h; quantity = CC50; result = 28.6 ± 1.58 µM
